Results collected from several papers.
Every numbered part comes from another study and shows a few of its results, in no order.
Sequence of UniProt P42681 (whole entry, looked up): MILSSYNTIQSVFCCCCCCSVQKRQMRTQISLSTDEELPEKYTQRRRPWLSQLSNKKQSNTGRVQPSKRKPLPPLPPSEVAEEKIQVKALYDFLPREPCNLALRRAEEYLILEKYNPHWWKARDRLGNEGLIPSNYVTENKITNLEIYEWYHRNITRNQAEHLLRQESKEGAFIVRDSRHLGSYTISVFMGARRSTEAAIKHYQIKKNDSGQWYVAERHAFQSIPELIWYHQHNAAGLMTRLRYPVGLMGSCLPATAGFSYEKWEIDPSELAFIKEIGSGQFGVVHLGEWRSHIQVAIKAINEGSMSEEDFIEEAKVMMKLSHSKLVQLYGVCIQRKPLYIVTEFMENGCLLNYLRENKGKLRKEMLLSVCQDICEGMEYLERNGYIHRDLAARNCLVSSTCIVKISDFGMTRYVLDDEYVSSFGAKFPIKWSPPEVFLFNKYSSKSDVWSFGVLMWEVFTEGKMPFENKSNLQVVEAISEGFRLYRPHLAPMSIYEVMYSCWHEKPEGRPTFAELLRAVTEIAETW
Sequence of UniProt Q96L34 (whole entry, looked up): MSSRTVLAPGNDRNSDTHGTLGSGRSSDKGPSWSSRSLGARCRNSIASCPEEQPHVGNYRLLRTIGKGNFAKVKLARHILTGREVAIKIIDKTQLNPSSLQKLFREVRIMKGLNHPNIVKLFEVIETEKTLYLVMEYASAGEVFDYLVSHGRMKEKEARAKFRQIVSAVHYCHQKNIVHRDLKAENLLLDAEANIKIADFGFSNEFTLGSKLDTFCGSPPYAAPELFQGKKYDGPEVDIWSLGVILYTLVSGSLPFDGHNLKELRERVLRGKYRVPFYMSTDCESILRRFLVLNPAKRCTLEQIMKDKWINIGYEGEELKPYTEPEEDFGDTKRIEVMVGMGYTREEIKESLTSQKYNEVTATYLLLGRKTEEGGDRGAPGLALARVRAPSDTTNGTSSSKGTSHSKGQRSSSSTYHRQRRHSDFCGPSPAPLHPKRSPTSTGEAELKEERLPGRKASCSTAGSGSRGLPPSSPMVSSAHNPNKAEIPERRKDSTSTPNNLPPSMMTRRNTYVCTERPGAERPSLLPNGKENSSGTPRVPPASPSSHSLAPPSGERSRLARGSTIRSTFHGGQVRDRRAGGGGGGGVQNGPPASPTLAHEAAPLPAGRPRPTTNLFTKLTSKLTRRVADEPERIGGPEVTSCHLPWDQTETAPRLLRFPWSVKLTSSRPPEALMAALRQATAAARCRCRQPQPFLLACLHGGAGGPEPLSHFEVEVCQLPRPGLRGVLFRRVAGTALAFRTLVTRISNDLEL
Sequence of UniProt Q7KZI7 (whole entry, looked up): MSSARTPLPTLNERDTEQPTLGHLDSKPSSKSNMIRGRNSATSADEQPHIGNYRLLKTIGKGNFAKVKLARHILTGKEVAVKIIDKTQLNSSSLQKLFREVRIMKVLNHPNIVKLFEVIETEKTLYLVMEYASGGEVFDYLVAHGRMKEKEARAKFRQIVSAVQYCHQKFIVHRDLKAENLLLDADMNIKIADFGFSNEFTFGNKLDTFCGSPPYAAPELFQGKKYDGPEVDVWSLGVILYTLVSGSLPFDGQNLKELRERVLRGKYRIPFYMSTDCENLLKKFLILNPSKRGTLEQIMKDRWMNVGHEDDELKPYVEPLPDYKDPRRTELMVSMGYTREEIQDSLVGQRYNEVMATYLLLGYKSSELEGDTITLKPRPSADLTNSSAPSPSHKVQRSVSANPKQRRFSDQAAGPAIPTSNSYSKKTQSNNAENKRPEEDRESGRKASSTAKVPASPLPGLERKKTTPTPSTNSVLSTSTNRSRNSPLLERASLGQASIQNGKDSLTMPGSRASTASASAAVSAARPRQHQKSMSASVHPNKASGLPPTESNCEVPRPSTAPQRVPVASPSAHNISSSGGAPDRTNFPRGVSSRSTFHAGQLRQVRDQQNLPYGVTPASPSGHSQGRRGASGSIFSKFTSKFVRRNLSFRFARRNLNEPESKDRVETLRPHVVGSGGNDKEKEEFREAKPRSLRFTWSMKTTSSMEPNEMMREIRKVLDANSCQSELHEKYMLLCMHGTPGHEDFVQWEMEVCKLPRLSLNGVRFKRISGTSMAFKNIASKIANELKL
Sequence of UniProt Q9H4B4 (whole entry, looked up): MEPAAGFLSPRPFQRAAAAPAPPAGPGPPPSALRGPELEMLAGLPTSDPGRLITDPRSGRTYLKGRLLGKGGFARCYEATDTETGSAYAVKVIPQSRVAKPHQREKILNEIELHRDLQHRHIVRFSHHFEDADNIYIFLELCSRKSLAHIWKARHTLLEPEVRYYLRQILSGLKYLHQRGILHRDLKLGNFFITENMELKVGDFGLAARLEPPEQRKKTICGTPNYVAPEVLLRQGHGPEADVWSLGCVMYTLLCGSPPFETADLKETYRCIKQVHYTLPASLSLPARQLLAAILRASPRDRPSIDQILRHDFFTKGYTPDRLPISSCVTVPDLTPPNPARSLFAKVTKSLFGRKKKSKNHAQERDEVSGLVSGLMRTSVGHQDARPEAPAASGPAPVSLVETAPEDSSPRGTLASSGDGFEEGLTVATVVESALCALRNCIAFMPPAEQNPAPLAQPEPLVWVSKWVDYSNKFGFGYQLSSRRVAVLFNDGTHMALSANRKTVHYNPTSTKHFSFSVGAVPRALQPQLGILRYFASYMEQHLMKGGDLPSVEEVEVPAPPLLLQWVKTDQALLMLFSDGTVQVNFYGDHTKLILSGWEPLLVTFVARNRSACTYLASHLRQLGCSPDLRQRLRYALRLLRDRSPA
Sequence of UniProt Q86UE8 (whole entry, looked up): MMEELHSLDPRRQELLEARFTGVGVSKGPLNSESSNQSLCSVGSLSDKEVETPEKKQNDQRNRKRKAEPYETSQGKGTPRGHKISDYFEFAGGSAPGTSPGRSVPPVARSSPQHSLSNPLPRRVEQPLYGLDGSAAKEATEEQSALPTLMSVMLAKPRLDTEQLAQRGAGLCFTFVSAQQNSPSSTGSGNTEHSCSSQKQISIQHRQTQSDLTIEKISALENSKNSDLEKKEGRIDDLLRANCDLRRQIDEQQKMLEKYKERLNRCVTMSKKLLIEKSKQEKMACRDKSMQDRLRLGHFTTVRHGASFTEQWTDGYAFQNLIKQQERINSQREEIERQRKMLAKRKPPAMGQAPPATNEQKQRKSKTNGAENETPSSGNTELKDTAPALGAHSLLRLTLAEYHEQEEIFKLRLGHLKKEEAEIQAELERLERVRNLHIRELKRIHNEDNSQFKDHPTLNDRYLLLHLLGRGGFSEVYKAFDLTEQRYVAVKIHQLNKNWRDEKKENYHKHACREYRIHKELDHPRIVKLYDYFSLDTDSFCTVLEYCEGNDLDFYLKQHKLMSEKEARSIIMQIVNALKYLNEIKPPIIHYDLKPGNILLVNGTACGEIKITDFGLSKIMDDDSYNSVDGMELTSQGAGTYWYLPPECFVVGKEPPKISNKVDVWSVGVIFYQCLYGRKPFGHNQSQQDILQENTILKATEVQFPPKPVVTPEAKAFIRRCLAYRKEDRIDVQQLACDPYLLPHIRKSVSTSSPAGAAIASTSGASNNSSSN
Sequence of UniProt O75914 (whole entry, looked up): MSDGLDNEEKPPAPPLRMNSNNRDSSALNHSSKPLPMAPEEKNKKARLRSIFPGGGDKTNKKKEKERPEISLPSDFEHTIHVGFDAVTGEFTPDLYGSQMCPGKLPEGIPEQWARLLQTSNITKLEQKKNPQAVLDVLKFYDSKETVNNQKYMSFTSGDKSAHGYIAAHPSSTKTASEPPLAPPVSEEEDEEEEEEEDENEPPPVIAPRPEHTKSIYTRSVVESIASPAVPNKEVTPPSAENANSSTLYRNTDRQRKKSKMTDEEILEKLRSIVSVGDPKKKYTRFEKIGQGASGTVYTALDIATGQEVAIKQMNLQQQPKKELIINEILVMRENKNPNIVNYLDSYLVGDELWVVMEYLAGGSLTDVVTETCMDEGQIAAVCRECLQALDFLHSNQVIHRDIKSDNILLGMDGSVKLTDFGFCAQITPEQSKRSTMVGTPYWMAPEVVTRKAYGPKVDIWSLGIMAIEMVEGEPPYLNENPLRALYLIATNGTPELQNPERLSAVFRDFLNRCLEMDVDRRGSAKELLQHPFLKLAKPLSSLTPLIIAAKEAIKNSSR
Sequence of UniProt P49761 (whole entry, looked up): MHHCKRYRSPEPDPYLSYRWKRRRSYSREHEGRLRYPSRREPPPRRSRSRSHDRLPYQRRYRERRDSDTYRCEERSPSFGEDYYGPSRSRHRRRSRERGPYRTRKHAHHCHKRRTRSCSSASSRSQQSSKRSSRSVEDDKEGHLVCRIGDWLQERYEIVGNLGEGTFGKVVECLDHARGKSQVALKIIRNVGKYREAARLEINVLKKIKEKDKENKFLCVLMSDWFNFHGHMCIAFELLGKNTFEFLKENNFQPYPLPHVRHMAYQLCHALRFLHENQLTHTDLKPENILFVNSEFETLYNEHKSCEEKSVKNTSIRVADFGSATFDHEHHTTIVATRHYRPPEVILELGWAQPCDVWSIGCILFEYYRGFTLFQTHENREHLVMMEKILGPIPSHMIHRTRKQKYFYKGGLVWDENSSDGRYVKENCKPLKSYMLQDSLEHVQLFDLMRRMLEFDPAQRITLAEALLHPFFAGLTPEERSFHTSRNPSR

Sample 1
Target: RING finger protein unkempt homolog, zinc fingers 1-6, GST-SBP tag (UNK, Homo sapiens, UniProt Q9C0B0, residues 30-357)
Sequence of UniProt Q9C0B0 (30-357, looked up): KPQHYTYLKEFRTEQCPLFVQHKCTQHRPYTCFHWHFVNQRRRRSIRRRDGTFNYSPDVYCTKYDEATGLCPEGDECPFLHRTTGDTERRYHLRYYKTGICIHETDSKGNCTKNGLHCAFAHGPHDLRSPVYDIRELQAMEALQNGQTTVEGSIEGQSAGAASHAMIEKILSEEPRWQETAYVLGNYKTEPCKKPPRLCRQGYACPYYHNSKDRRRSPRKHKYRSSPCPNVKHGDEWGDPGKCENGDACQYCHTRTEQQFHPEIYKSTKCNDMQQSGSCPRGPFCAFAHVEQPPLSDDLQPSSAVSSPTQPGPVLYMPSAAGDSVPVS
Method: RNA Bind-n-Seq
Molecule type: RNA
Sample: in vitro
Tested at: not given
Notes: RNA with constant flanks, human-mouse chimeric sites, ends assumed
Baseline: input RNA pool
Direction: higher = stronger binding
`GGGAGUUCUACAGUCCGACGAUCCUUUUUGAAUCAUUCAAGAGUUUUGAAGGUCUCUUUUAUUUUCUGGGAUCCAUUGUUAACUUUAGUCAGGACCCAGAUGUGCACUUUAAAUAUAUUCAGGCGGCUUGCAAGACUGGGCAACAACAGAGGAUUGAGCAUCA` has a bound/input enrichment of 0.882 ratio.
`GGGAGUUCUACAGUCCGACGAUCAAAGAGUGGAUAGAGUGUGCACACGGGAUCGGUGGGACCCGGGCGAAGAAAGAGUGCAAGAUAGAGUUCGAUGACUUCGAAGAGUGCUUGCUUCGGUAGAAAACGAUGAGGCGAAUGCAUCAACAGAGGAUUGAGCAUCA` has a bound/input enrichment of 0.461 ratio.
For `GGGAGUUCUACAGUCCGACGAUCAUUGUUGAAGCGAAUCCACUUUUAGAAGCCUUUGGAAAUGCAAAGACUGUUCGCAACAAUAAUAGCAGUCGAUUUGGAAAAUUUGUAGAAAUUCAUUUCAAUGAAAAGAGUUCGGUUGUUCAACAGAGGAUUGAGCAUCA`, the bound/input enrichment was 0.32 ratio.
`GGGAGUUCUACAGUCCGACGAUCUAAGUCCUGUGCCAGCAAUUUAUCCCAUAUAUUUUAAAUUCUGGACCAAUAGUGUUUGUUUCCUGAUUAUUGUAUCCAAUACUUUGCCUAGUAUGUAACUCACUCUUACUGAUAAUAAAACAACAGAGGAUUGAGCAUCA` has a bound/input enrichment of 4.33 ratio.
`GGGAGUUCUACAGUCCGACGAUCCCCCAAUACCAUUUGCAAGAGUUGGAAUGCACUCUCUUUUUUAAAAAAUAUGCAUAUAUUUUAGGGCUGUAGAUUUAUUUUCCUGGUUUUGUUUUUCAUUGCUGACUUUUGAGCACAGAACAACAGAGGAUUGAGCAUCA` gave a bound/input enrichment of 1.2 ratio.
The bound/input enrichment of `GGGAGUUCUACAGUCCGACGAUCUCAUUUUUCUCUUUUCUUUCUUUCCUUUAGGAAAAGCCUAAAGAUUAGGUUGUAAGAAAAAUAGAAGCCAUGUUUCGAAGACCUGUAUUACAGGUAUUUCGUCAGUUUGUAAGACAUGAGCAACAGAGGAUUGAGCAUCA` is reported as 0.439 ratio.
`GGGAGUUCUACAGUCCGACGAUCAUCAAAUACUUUGGGGACAUCAUUAGUGUGGGACAGAGACUGUUGCAAGGGGCCCGGAUUUUAGGAAUUCCAGUUAUCAUAACGGAACAAUACCCCAAAGGACUUGGCAGCACCGUUCAACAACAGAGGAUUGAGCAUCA` has a bound/input enrichment of 0.405 ratio.
With `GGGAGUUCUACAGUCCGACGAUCAAAGUGAUAACCAUGUUUGUCCAACGACAGGUAUUUUCGGAGAGCAAAGAUGAGAUUGCGUUAGUCCUCUAUGGCACAGAUGGCACUGAUAAUGCCCUUGCUGGCAAGGACCAGUAUCAGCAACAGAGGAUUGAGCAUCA` the bound/input enrichment was 0.143 ratio.

Sample 2
SMILES: CN(C)C(=O)Cn1cc(-c2nc([C@@](C)(c3ccc(-c4cnc(N)nc4)cc3)C3CC3)no2)cn1
Method: competition with immobilised ligand
Tested at: 1 µM
MARK4 (Homo sapiens, UniProt Q96L34); cell-free assay — remaining binding: 95%.
For MAP2K1 (Homo sapiens, UniProt Q02750); cell-free assay: remaining binding read 89%.
NEK5 (Homo sapiens, UniProt Q6P3R8); cell-free assay — remaining binding: 89%.
MAP3K19 (Homo sapiens, UniProt Q56UN5); cell-free assay — remaining binding: 61%.
It gave 96% for remaining binding (TXK (Homo sapiens, UniProt P42681); binding).
BMPR2 (Homo sapiens, UniProt Q13873); cell-free assay — remaining binding: 94%.
SIK2 (Homo sapiens, UniProt Q9H0K1); cell-free assay — remaining binding: 93%.
MAP3K3 (Homo sapiens, UniProt Q99759); cell-free assay — remaining binding: 86%.

Sample 3
Structure (SMILES): N#Cc1c(NC(=O)c2cccc3ccccc23)sc2c1CCCC2
Effect on: enzyme activity
Mode: inhibitor
Tested at: 0.5 µM
Baseline: control
For MARK2 (Homo sapiens, UniProt Q7KZI7): remaining activity read 105%.
MAPK1 (Homo sapiens, UniProt P28482) — remaining activity: 87.5%.
For NEK3 (Homo sapiens, UniProt P51956): remaining activity read 93.2%.
TLK2 (Homo sapiens, UniProt Q86UE8) — remaining activity: 98.9%.
For DCLK2 (Homo sapiens, UniProt Q8N568): remaining activity read 96.5%.
For PLK3 (Homo sapiens, UniProt Q9H4B4): remaining activity read 99.6%.
TXK (Homo sapiens, UniProt P42681) — remaining activity: 97%.
It gave 108% for remaining activity (CAMK4 (Homo sapiens, UniProt Q16566)).
The remaining activity was 101% (MARK4 (Homo sapiens, UniProt Q96L34)).
For CLK3 (Homo sapiens, UniProt P49761): remaining activity read 99.3%.
For GRK4 (Homo sapiens, UniProt P32298): remaining activity read 110%.
PAK3 (Homo sapiens, UniProt O75914) — remaining activity: 105%.

Sample 4
Target: Prothrombin, mature alpha-thrombin (F2, Homo sapiens, UniProt P00734)
Method: aptamer microarray, sandwich
Molecule type: DNA with 2'F-ANA
Sample: in vitro
Tested at: 200 nM
Notes: whole 15-mer aptamer, many near background
Added: Cy3 exosite-II aptamer, 400 nM
Direction: higher = stronger binding
Sequence: GGTTGGTGTGGTTGG
`2'F-ANA at 1 3 4 8 9 10 11 12 13 14 15`: “mean fluorescence intensity” 55.2 a.u.
`2'F-ANA at 5 8 11`: “mean fluorescence intensity” 68.3 a.u.
For `2'F-ANA at 1 2 3 5 6 7 9 10 13`, “mean fluorescence intensity” read 54.5 a.u.
Under “mean fluorescence intensity”, `2'F-ANA at 3 7 8 10 13` is recorded as 577 a.u.
`2'F-ANA at 3 5 6 9 12 13 15` — result for “mean fluorescence intensity”: 122 a.u.
`2'F-ANA at 1 6 7 8 10 11 12 13 14 15` — result for “mean fluorescence intensity”: 54.3 a.u.
Under “mean fluorescence intensity”, `2'F-ANA at 1 3 5 6 7 9 10 13 14 15` is recorded as 50.4 a.u.
`2'F-ANA at 1 4 5 6 7 9 12`: “mean fluorescence intensity” 96.9 a.u.

A few entries again (sample 3):
For GRK4 (Homo sapiens, UniProt P32298): remaining activity read 110%.
For DCLK2 (Homo sapiens, UniProt Q8N568): remaining activity read 96.5%.
MAPK1 (Homo sapiens, UniProt P28482) — remaining activity: 87.5%.
PAK3 (Homo sapiens, UniProt O75914) — remaining activity: 105%.
It gave 108% for remaining activity (CAMK4 (Homo sapiens, UniProt Q16566)).
The remaining activity was 101% (MARK4 (Homo sapiens, UniProt Q96L34)).
